# Assay results pooled from the literature.
# Numbers after ± are the reported error.
Structure (SMILES),test,system,setting,solubility
Cc1[nH]c(/C=C2\N=C(c3ccc[nH]3)C=C2OC(C)C)cc1Cc1ccc(OC(F)(F)F)cc1.Cl,,potassium phosphate buffer,"1.5 h, pH 7.4, room temperature, 100 mM buffer",12.2 µM
CC[C@@H](C)[C@H]1NC(=O)[C@@H]2CCCN2C(=O)[C@H](CO)NC(=O)[C@H](CC(C)C)NC(=O)[C@H](C(C)C)NC(=O)CN(C)C(=O)[C@@H](Cc2ccc(O)cc2)NC(=O)[C@@H](Cc2ccc(O)cc2)NC(=O)CSC[C@@H](C(=O)O)NC(=O)[C@@H](CC(C)C)NC1=O,,HBSS,pH 7.4,813 µM
COc1ccc(C2(C(=O)N3CCC4(CC3)CC(CNS(C)(=O)=O)CCO4)CCCC2)cc1 (centres unmarked),,,pH 7.4,210 µM
Cn1c(=O)ccc2ccc(F)c(CCNC[C@H]3CN(c4ccc5c(n4)NC(=O)CO5)C(=O)O3)c21,,aqueous buffer,,151 µM
COC1=CC(c2ccc[nH]2)=N/C1=C\c1[nH]c(Cc2ccccc2)cc1Cc1ccccc1.Cl,,potassium phosphate buffer,"1.5 h, pH 7.4, room temperature, 100 mM buffer",< 3.13 µM
Cc1ccc(OCCc2cccc(F)c2)c(C(N)=O)c1,,PBS,"30 (unit not given), pH 7.4",50 µM
CN(C)S(=O)(=O)NCC1CCOC2(CCN(C(=O)C3(c4ccccc4F)CCCC3)CC2)C1 (centres unmarked),,,pH 7.4,230 µM
COc1cc(Nc2ncc(F)c(Nc3ccc4c(n3)NC(=O)C(C)(C)O4)n2)cc(OC)c1OC,,PBS,"3 h, pH 7.4, 0.1% DMSO",0.8 µM
CC[C@@H]1NC(=O)[C@H](CC(C)C)NC(=O)[C@H](CC(C)C)NC(=O)CNC(=O)[C@@H](Cc2ccc(O)cc2)NC(=O)[C@H]2CCCN2C(=O)[C@H](CCCNC(=N)N)NC(=O)[C@H](C(C)C)NC(=O)[C@H](CC(C)C)NC(=O)[C@H]([C@@H](C)CC)NC1=O,,HBSS,pH 7.4,692 µM
CCOC(=O)N1C[C@@H](c2cccnc2)N[C@@H](C(CC)CC)C1,"shake-flask, LC-HRMS",aqueous buffer,"16 h, pH 6.8",> 750 µM
CCc1cc(C)cc(CC)c1-c1c(OC(=O)C(C)(C)C)n2n(c1=O)CCOCC2,,PBS,"pH 7.4, 25 °C, 2% DMSO",357 µM
CC1(C)C(=O)N(c2ccc(C#N)c(C(F)(F)F)c2)C(=S)N1Cc1ccc(-c2c[nH]nn2)cc1,,water,10% DMSO,300 µg/mL
CC[C@H](C)[C@H](NC(=O)[C@H](CC(=O)O)NC(=O)[C@H](CCCCN)NC(=O)[C@H](CC(C)C)NC(=O)[C@H](CC(N)=O)NC(=O)[C@@H](NC(=O)[C@H](Cc1ccc(O)cc1)NC(=O)[C@H](CO)NC(=O)[C@H](CCC(N)=O)NC(=O)[C@H](CCC(=O)O)NC(=O)[C@H](CC(C)C)NC(=O)[C@H](CCCCN)NC(=O)[C@H](CCCCN)NC(=O)[C@@H](NC(=O)[C@H](C)NC(=O)[C@H](CCC(=O)O)NC(=O)[C@H](CCC(=O)O)NC(=O)[C@H](CC(C)C)NC(=O)[C@H](CCCCN)NC(=O)[C@H](CCCCN)NC(=O)[C@H](CCSC)NC(=O)[C@H](CCC(=O)O)NC(=O)[C@H](CC(=O)O)NC(=O)[C@H](CCC(N)=O)NC(=O)[C@H](CC(C)C)NC(=O)[C@H](CC(=O)O)NC(=O)[C@H](CC(C)C)NC(=O)[C@H](Cc1ccccc1)NC(=O)[C@@H](NC(=O)[C@@H](NC(=O)[C@H](CC(N)=O)NC(=O)[C@@H](NC(=O)[C@H](Cc1ccc(O)cc1)NC(=O)[C@H](CC(=O)O)NC(=O)[C@H](CC(C)C)NC(=O)[C@@H](N)CO)[C@@H](C)CC)C(C)C)[C@@H](C)O)[C@@H](C)CC)[C@@H](C)CC)C(=O)O,,PBS,pH 7.2,219 ± 14 µM
Cc1ccc([C@@H]2COC[C@H](c3ccc(C#N)cc3)N2)cn1,"shake-flask, LC-HRMS",aqueous buffer,"16 h, pH 6.8",> 750 µM
COc1cc2c(cc1NC(=O)c1ccc(C(C)(C)C)cc1)CCCC2,,,pH 7.4,5 µM
CC(C)(C)C(=O)NNCc1ccccc1,,PBS,"2 h, pH 7.4, 25 °C, 2% DMSO",424 µM
COC1=CC(c2ccc[nH]2)=N/C1=C\c1cc(-c2ccc(OC(F)(F)F)cc2)c(C)[nH]1.Cl,,potassium phosphate buffer,"1.5 h, pH 7.4, room temperature, 100 mM buffer",< 3.13 µM
O=C1Cc2cc(-c3ccco3)ccc2C(=O)N1O,,aqueous buffer,"2 (unit not given), pH 7.2",162 ± 5.33 µM
NC(=O)c1cccc2c1O/C(=C\c1ccc(C(=O)NCCc3nc4ccccc4[nH]3)s1)C2=O,saturation solubility,aqueous buffer,"24 h, pH 7.2, 25 °C",> 60 µg/mL
CC[C@H](C)[C@H](NC(=O)[C@H](CCC(=O)O)NC(=O)[C@H](CCCCN)NC(=O)[C@H](CC(C)C)NC(=O)[C@H](CC(=O)O)NC(=O)[C@@H](NC(=O)[C@H](Cc1ccc(O)cc1)NC(=O)[C@H](CO)NC(=O)[C@H](CCC(=O)O)NC(=O)[C@H](CCC(=O)O)NC(=O)[C@H](CC(C)C)NC(=O)[C@H](CCCCN)NC(=O)[C@H](CCCCN)NC(=O)[C@@H](NC(=O)[C@H](C)NC(=O)[C@H](CCC(=O)O)NC(=O)[C@H](CCC(=O)O)NC(=O)[C@H](CC(C)C)NC(=O)[C@H](CCCCN)NC(=O)[C@H](CCCCN)NC(=O)[C@H](CCSC)NC(=O)[C@H](CCC(=O)O)NC(=O)[C@H](Cc1ccc(O)cc1)NC(=O)[C@H](CCC(=O)O)NC(=O)[C@H](CC(C)C)NC(=O)[C@H](CC(=O)O)NC(=O)[C@H](CC(C)C)NC(=O)[C@H](Cc1ccccc1)NC(=O)[C@@H](NC(=O)[C@@H](NC(=O)[C@H](CC(N)=O)NC(=O)[C@@H](NC(=O)[C@H](CCC(N)=O)NC(=O)[C@H](CC(=O)O)NC(=O)[C@H](CC(C)C)NC(=O)[C@@H](N)CO)[C@@H](C)CC)C(C)C)[C@@H](C)O)[C@@H](C)CC)[C@@H](C)CC)C(=O)O,,PBS,pH 7.2,1080 ± 83 µM
CSCC[C@H](NC(=O)[C@H](CCC(=O)O)NC(=O)[C@@H]1CCCN1C(=O)[C@@H](NC(=O)[C@@H]1CCCN1)[C@@H](C)O)C(=O)N[C@@H](CCCNC(=N)N)C(=O)N[C@@H](CCC(=O)O)C(=O)N[C@@H](CCCCN)C(=O)N[C@@H](CC(C)C)C(=O)N[C@H]1CSSC[C@@H]2NC(=O)[C@@H](NC(=O)[C@H](Cc3ccc(O)cc3)NC(=O)[C@H](CCCNC(=N)N)NC(=O)[C@H](C)NC(=O)[C@@H]3CCCN3C(=O)[C@H](CC(N)=O)NC(=O)[C@@H](NC(=O)[C@H](C)NC(=O)[C@H](C)NC(=O)[C@H](C)N)[C@@H](C)O)CSSC[C@H](NC(=O)CNC(=O)[C@H](CO)NC(=O)[C@H](CC(C)C)NC2=O)C(=O)N[C@@H]([C@@H](C)O)C(=O)N[C@@H](CCC(N)=O)C(=O)N[C@@H](CCC(N)=O)C(=O)N[C@@H](CC(=O)O)C(=O)N[C@@H](CC(C)C)C(=O)N[C@@H](CC(C)C)C(=O)N[C@@H]([C@@H](C)O)C(=O)N[C@@H](CC(C)C)C(=O)N[C@H](C(=O)N2CCC[C@H]2C(=O)N[C@@H](Cc2ccc(O)cc2)C(=O)O)CSSC[C@@H](C(=O)NCC(=O)NCC(=O)N2CCC[C@H]2C(=O)N[C@@H](CCCNC(=N)N)C(=O)N[C@@H](Cc2c[nH]c3ccccc23)C(=O)N[C@@H](CO)C(=O)N[C@H](C(=O)N[C@@H](CCC(=O)O)C(=O)N[C@@H](C)C(=O)O)[C@@H](C)O)NC(=O)[C@H](C(C)C)NC(=O)[C@H](CCCNC(=N)N)NC(=O)[C@H](C(C)C)NC(=O)[C@H](CC(C)C)NC(=O)[C@H](C)NC(=O)[C@H](CCCNC(=N)N)NC(=O)[C@H](C(C)C)NC(=O)[C@H](Cc2ccccc2)NC(=O)[C@H](Cc2c[nH]cn2)NC(=O)[C@H](Cc2c[nH]cn2)NC(=O)CNC1=O,,water,,~100 µM
O=C(NCCCNc1nc(Nc2cccc(NC(=O)N3CCCC3)c2)ncc1I)c1cccs1,,intestinal pH buffer,24 h,< 1 µg/mL
COc1ccc(-c2oc3cc(OC)cc(OC)c3c(=O)c2OC)cc1,HPLC,ethanol:butylene glycol 0:100,,5674 ± 41 ppm
Cc1ccc([C@H]2N[C@@H](CC(C)(C)C)CO[C@@H]2C)cn1,"shake-flask, LC-HRMS",aqueous buffer,"16 h, pH 6.8",> 750 µM
CS(=O)(=O)NCC1CCOC2(CCN(C(=O)C3(c4ccc(Cl)cc4)CCCC3)CC2)C1 (centres unmarked),,,pH 7.4,220 µM
COC1=CC(c2ccc[nH]2)=N/C1=C\c1[nH]c(C)cc1-c1ccccc1.Cl,,potassium phosphate buffer,"1.5 h, pH 7.4, room temperature, 100 mM buffer",90.1 µM
CC[C@H](C)[C@H](NC(=O)[C@H](CCC(=O)O)NC(=O)[C@H](CCCCN)NC(=O)[C@H](CC(C)C)NC(=O)[C@H](CC(N)=O)NC(=O)[C@@H](NC(=O)[C@H](Cc1ccc(O)cc1)NC(=O)[C@H](CO)NC(=O)[C@H](CCC(=O)O)NC(=O)[C@H](CCC(=O)O)NC(=O)[C@H](CC(C)C)NC(=O)[C@H](CCCCN)NC(=O)[C@H](CCCCN)NC(=O)[C@@H](NC(=O)[C@H](C)NC(=O)[C@H](CCC(=O)O)NC(=O)[C@H](CCC(=O)O)NC(=O)[C@H](CC(C)C)NC(=O)[C@H](CCCCN)NC(=O)[C@H](CCCCN)NC(=O)[C@H](CCSC)NC(=O)[C@H](CCC(=O)O)NC(=O)[C@H](CC(=O)O)NC(=O)[C@H](CCC(=O)O)NC(=O)[C@H](CC(C)C)NC(=O)[C@H](CC(=O)O)NC(=O)[C@H](CC(C)C)NC(=O)[C@H](Cc1ccccc1)NC(=O)[C@@H](NC(=O)[C@@H](NC(=O)[C@H](CC(N)=O)NC(=O)[C@@H](NC(=O)[C@H](Cc1ccc(O)cc1)NC(=O)[C@H](CC(=O)O)NC(=O)[C@H](CC(C)C)NC(=O)[C@@H](N)CO)[C@@H](C)CC)C(C)C)[C@@H](C)O)[C@@H](C)CC)[C@@H](C)CC)C(=O)O,,PBS,pH 7.2,528 ± 19 µM
CNC(=O)c1cc(C)ccc1OCCc1ccc(Br)cc1,,PBS,"30 (unit not given), pH 7.4",25 µM
Cc1ccc(S(=O)(=O)Nc2c(N[C@H]3CC[C@H](NC(=O)Nc4ccc(F)c(Cl)c4)CC3)c(=O)c2=O)cc1,,,pH 7.4,473 µg/mL
CN(C)S(=O)(=O)NCC1CCOC2(CCN(C(=O)C3(c4cccnc4)CCCC3)CC2)C1 (centres unmarked),,,pH 7.4,160 µM
CC[C@H](C)[C@H]1C(=O)N[C@@H](Cc2ccccc2)C(=O)N[C@H](C(=O)O)CSCC(=O)N[C@H](Cc2ccc(O)cc2)C(=O)NCC(=O)N[C@@H](CC(C)C)C(=O)N2CCC[C@H]2C(=O)N[C@@H](CC(C)C)C(=O)N[C@@H](CC(C)C)C(=O)N[C@@H](C)C(=O)N[C@@H](C)C(=O)N1C,,HBSS,pH 7.4,759 µM
NC(=O)[C@@H]1CC(F)(F)CN1C(=O)c1ccc(N2CC(F)(F)C2)c(OCC2CC2)n1,LYSA,,,4 ± 0.1 µg/mL
COC1=CC(c2ccc[nH]2)=N/C1=C\c1[nH]c(Cc2ccc(OC)cc2)cc1Cc1ccc(OC)cc1.Cl,,potassium phosphate buffer,"1.5 h, pH 7.4, room temperature, 100 mM buffer",< 3.13 µM
CCC[C@H](C)[C@H]1CN(C(=O)OCC)C[C@@H](c2cccnc2)N1,"shake-flask, LC-HRMS",aqueous buffer,"16 h, pH 6.8",> 750 µM
CN1C(=O)Cc2ccc(F)c(CCNCC[C@H]3CN(c4ccc5c(n4)NC(=O)CO5)C(=O)O3)c21,,aqueous buffer,,178 µM
C#Cc1ccc2c(c1)C(c1ccccn1)=NCc1c(-c3cnco3)ncn1-2,"thermodynamic equilibrium, UV",tetrahydrofuran,"24 h, 25 °C",4130 µg/mL
CC(C)N(Cc1ccccc1)C(=O)C(C)(C)C,,PBS,"pH 7.4, 25 °C, 2% DMSO",323 µM
Cn1nccc1[C@]1(CNC(=O)c2ccc(F)c(F)c2-c2ccc(C(F)(F)F)cc2)NC(=O)NC1=O,,"water, ethanol, Solutol HS 15","24 h, crystalline material",30000 µg/mL

# For quick reference, copied from above:
Structure (SMILES),test,system,setting,solubility
COC1=CC(c2ccc[nH]2)=N/C1=C\c1cc(-c2ccc(OC(F)(F)F)cc2)c(C)[nH]1.Cl,,potassium phosphate buffer,"1.5 h, pH 7.4, room temperature, 100 mM buffer",< 3.13 µM
O=C1Cc2cc(-c3ccco3)ccc2C(=O)N1O,,aqueous buffer,"2 (unit not given), pH 7.2",162 ± 5.33 µM
NC(=O)c1cccc2c1O/C(=C\c1ccc(C(=O)NCCc3nc4ccccc4[nH]3)s1)C2=O,saturation solubility,aqueous buffer,"24 h, pH 7.2, 25 °C",> 60 µg/mL
